{"data": "Assay results pooled from the literature", "note": "Compare with care: the assays were run in different laboratories. Numbers after ± are the reported error."}
{"SMILES": "CCCCCc1cc(OC(=O)C(NC(=O)CCC(=O)O)C(C)C)c2c(c1)OC(C)(C)C1CCC(C)=CC21 (stereo not shown)", "test system": "isolated rabbit cornea", "setting": "3 h, pH 7.4, 34 °C, donor Cremophor RH sample A 0.05%, BAK 0.02%, EDTA 0.1%", "measurement": "Papp", "value": "2.8 ± 0.3 ×10⁻⁶ cm/s"}
{"SMILES": "CC(C)[C@H](NC(=O)CNC(=O)[C@H](CCC(N)=O)NC(=O)[C@H](C)N)C(=O)O", "test system": "human", "setting": "intravenous infusion, 15 mg/kg/h, 2 h infusion", "measurement": "subjects with serious adverse events", "value": "0%"}
{"SMILES": "O=C(O)CCC(NP(=O)(O)OCCC[C@@H](NC(=O)CCC(NC(=O)c1ccc([18F])cc1)C(=O)O)C(=O)O)C(=O)O (stereo partly shown)", "target or system": "CWR22Rv1 tumour model", "test system": "host not given, blood", "setting": "intravenous, 1 h, tumour-bearing", "measurement": "tracer uptake", "value": "0.15 %ID/g"}
{"SMILES": "COc1ccc(CNc2nc(N3CCC[C@H]3CO)ncc2C(=O)NN)cc1Cl", "target or system": "Salmonella typhimurium", "test system": "TA102", "setting": "1000 µg/plate", "measurement": "revertant count", "value": "210 ± 14"}
{"SMILES": "CN[C@](C)(C[18F])C(=O)O", "target or system": "SK-OV-3 tumour model", "test system": "host not given, muscle", "setting": "2 h, tumour-bearing", "measurement": "tracer uptake", "value": "1.2 %ID/g"}
{"SMILES": "CC[C@H](C)C(=O)N1CCC(NC(=O)Nc2ccc(OC(F)(F)F)c(F)c2)CC1", "test system": "healthy volunteers", "setting": "oral, 2 mg single dose, 14 (unit not given)", "measurement": "subjects with severe TEAE", "value": "0%"}
{"SMILES": "CCC(=O)N(C)c1ccc(Cl)c(Cl)c1", "target or system": "Salmonella typhimurium", "test": "Ames test", "test system": "TA1535", "setting": "1.00 mg/plate, with rat liver S9", "measurement": "revertant colonies", "value": "7 ± 1.2 revertants/plate"}
{"SMILES": "O=C(O)CCC(NP(=O)(O)OCCC[C@@H](NC(=O)CCC(NC(=O)CCCCCNC(=O)CCCCCNC(=O)c1ccc([18F])cc1)C(=O)O)C(=O)O)C(=O)O (stereo partly shown)", "target or system": "CWR22Rv1 tumour model", "test system": "host not given, bone", "setting": "intravenous, 2 h, tumour-bearing", "measurement": "tracer uptake", "value": "0.21 %ID/g"}
{"SMILES": "COc1cc(NC(=O)C(=O)c2c(C)n(Cc3ccc(Cl)cc3)c3ccc(C)cc23)ccn1", "test system": "female cynomolgus monkey, plasma", "setting": "oral, 10 mg/kg", "measurement": "Cmax", "value": "545 ng/mL"}
{"SMILES": "C[C@@](O)(C(F)F)[C@H](NC(=O)c1ccc(C#CC#CC2CC2)cc1)C(=O)NO", "test system": "dog, plasma", "setting": "intravenous, 10 mg/kg", "measurement": "Vd", "value": "4 L/kg"}
